Published values pooled from the literature.
A part holds a random share of what one study measured. Several values in a cell are separate wells, animals, samples, runs or records.
Chain of UniProt P35372 (whole entry, looked up): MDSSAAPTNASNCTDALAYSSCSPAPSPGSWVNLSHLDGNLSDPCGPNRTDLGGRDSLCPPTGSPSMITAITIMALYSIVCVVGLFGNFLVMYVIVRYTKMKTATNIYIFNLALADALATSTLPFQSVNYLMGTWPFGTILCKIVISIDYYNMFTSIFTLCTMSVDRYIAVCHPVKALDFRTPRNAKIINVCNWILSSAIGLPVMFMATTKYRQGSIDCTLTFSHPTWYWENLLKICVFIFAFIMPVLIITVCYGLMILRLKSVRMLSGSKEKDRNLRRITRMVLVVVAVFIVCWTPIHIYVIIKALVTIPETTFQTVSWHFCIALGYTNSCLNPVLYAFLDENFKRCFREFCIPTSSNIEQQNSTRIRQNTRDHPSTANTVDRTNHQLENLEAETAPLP
Chain of UniProt P41145 (whole entry, looked up): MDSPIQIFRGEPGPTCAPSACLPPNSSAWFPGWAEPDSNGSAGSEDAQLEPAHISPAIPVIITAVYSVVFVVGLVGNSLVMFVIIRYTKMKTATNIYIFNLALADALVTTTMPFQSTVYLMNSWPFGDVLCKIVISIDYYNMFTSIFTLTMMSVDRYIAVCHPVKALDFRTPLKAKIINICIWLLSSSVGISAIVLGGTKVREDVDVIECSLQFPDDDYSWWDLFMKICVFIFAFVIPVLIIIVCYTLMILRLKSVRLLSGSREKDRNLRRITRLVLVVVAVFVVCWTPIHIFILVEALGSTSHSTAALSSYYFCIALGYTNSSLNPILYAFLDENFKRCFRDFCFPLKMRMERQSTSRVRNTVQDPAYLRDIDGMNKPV
Chain of UniProt P11229 (whole entry, looked up): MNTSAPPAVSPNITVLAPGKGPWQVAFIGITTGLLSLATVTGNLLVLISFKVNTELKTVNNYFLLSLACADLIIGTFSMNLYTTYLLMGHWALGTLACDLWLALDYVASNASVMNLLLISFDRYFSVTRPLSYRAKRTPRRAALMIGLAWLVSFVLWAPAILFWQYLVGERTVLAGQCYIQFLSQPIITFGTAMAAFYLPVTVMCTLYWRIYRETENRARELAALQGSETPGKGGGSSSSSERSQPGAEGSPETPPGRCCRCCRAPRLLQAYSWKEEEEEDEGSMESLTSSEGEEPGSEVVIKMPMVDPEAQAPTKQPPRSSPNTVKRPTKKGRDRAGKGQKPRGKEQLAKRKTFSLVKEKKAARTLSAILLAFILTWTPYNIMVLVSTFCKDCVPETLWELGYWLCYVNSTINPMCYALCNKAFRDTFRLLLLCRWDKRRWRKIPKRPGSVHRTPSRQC
Chain of UniProt P20309 (whole entry, looked up): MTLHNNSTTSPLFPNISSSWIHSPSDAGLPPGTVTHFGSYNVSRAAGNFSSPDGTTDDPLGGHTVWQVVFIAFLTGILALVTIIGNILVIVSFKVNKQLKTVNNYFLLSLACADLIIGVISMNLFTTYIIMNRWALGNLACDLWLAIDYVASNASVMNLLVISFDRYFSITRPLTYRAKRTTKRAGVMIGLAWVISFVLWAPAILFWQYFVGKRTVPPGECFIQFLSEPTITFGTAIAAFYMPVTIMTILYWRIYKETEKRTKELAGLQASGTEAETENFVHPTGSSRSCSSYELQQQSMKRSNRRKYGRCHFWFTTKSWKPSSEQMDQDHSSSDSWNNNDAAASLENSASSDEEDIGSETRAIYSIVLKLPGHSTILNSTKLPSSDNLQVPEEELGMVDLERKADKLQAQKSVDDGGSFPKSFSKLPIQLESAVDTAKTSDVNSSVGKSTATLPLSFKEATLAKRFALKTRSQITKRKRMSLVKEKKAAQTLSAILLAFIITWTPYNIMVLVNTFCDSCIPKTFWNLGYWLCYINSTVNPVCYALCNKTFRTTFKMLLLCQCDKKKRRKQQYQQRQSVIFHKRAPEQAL
Chain of UniProt P41143 (whole entry, looked up): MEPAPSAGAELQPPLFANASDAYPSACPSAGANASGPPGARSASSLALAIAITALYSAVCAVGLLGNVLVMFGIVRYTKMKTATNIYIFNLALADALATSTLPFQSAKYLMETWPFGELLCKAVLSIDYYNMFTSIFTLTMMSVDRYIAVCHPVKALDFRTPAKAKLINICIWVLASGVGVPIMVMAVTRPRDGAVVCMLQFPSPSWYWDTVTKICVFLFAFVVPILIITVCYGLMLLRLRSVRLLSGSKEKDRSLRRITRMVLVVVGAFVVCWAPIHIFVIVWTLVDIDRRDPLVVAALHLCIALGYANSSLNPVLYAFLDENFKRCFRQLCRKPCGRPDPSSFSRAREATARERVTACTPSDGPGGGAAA
Chain of UniProt P28223 (whole entry, looked up): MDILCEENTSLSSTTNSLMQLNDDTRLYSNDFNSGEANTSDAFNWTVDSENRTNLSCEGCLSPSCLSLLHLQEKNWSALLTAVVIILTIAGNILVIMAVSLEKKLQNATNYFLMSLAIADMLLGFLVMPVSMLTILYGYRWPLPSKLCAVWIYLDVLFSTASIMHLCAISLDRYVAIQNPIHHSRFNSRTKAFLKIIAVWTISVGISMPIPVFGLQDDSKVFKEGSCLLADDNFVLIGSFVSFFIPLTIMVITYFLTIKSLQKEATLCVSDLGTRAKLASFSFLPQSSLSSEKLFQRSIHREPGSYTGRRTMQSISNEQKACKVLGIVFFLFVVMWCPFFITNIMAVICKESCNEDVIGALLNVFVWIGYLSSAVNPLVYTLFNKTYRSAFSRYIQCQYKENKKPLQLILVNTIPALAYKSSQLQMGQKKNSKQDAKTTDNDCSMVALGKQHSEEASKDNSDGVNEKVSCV

Sample 1
Target: Calcium/calmodulin-dependent protein kinase type II subunit alpha (CAMK2A, Homo sapiens, UniProt Q9UQM7)
Chain of UniProt Q9UQM7 (whole entry, looked up): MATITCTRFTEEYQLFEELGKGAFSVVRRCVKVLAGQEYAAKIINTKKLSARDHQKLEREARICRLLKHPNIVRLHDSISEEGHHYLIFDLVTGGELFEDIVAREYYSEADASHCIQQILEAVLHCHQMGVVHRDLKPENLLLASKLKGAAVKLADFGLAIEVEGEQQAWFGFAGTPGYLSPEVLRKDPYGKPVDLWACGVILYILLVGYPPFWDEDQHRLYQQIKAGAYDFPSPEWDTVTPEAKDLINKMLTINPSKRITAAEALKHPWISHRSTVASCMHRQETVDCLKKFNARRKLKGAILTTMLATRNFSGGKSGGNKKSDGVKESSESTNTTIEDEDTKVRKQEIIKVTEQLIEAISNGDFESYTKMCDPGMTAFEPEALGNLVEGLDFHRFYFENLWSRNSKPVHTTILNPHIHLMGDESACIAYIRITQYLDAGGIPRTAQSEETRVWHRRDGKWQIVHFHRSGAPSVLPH
Effect on: enzyme activity
Mode: inhibitor
Tested at: 10 µM
With `COc1cc2cc(c1Cl)N(C)C(=O)C[C@H](OC(=O)C(C)C)[C@]1(C)O[C@@H]1[C@H](C)[C@@H]1C[C@@](O)(NC(=O)O1)[C@H](OC)/C=C/C=C(\C)C2` the inhibition was -15%.
With `CCCCCCCCCCCCCC(=O)O[C@@H]1[C@@H](C)[C@@]2(O)[C@@H](C=C(CO)C[C@]3(O)C(=O)C(C)=C[C@@H]23)[C@@H]2C(C)(C)[C@]12OC(C)=O` the inhibition was -13%.
For `C[N+]1(CC2CC2)[C@@H]2C[C@@H](OC(=O)[C@H](CO)c3ccccc3)C[C@H]1[C@@H]1O[C@@H]12` (stereo partly drawn), the inhibition was 1%.
For `C[C@H]1CC[C@H]2[C@H](C)[C@@H]3CC[C@@H]4[C@@H](C[C@H]5[C@H]4C[C@@H](O)[C@H]4C[C@@H](O)CC[C@@]45C)[C@@H]3CN2C1`, the inhibition was 5%.
`O=C(CCCN1CCC(n2c(=O)[nH]c3ccccc32)CC1)c1ccc(F)cc1` gave an inhibition of 3%.
`CCN1C[C@@]2(COC)[C@H]3[C@@H](OC)[C@H]4[C@@H]1[C@]3([C@@H](OC)C[C@H]2OC(C)=O)[C@@H]1C[C@@]2(O)[C@H](OC(=O)c3ccccc3)[C@@H]1[C@]4(OC(C)=O)[C@@H](O)[C@@H]2OC` gave an inhibition of 9%.

Sample 2
SMILES: O=C1CCC(N2Cc3c(ccc4c3OCC43CCN(Cc4ccccc4)CC3)C2=O)C(=O)N1 (stereo not drawn)
For male Sprague-Dawley rat, plasma; intravenous, 1 mg/kg: half-life read 2.05 h.
It gave 1.38 h and 1.39 h for half-life (rat Sprague Dawley male, plasma; oral, 3.0 mg/kg).
male Sprague-Dawley rat, plasma; oral, 3 mg/kg — half-life: 1.36 h.
It gave 1.64 h for half-life (male CD-1 mouse, plasma; intravenous, 1 mg/kg).
Sprague Dawley rat, male, plasma; intravenous, 1.0 mg/kg — half-life: 2.19 h.
The half-life was 1.16 h (metabolic stability; mouse, liver microsomes; 1 µM).
The half-life was 2.89 h (ICR mice, male, plasma; oral, 3.0 mg/kg).
rat Sprague Dawley male, plasma; intravenous, 1.0 mg/kg — half-life: 1.95 h and 2 h.

Sample 3
Structure (SMILES): N#Cc1ccc(Nc2ccc3[nH]c(=O)[nH]c3c2)c(Cl)c1
Effect on: cell-free assay
Tested at: 10 µM
For OPRM1 (Homo sapiens, UniProt P35372): inhibition read 0.37%.
HTR2A (Homo sapiens, UniProt P28223) — inhibition: 5.37%.
CHRM3 (Homo sapiens, UniProt P20309) — inhibition: -26.6%.
OPRD1 (Homo sapiens, UniProt P41143) — inhibition: -0.28%.
OPRK1 (Homo sapiens, UniProt P41145) — inhibition: 8.98%.
It gave -9.92% for inhibition (CHRM1 (Homo sapiens, UniProt P11229)).

Sample 4
Target: Eukaryotic initiation factor 4A-I (EIF4A1, Homo sapiens, UniProt P60842)
Chain of UniProt P60842 (whole entry, looked up): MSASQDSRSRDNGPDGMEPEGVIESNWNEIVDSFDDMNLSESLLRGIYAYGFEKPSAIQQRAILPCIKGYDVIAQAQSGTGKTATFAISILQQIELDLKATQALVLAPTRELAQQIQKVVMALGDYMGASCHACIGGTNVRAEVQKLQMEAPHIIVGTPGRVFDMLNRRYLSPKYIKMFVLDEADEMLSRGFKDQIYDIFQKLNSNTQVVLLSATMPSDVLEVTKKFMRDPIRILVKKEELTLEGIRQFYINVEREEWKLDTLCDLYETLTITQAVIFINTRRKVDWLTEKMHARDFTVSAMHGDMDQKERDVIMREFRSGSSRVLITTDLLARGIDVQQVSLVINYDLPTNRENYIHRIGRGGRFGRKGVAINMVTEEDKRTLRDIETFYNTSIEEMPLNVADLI
Effect on: RNA clamping
Technique: fluorescence polarization
Tested at: concentration not given
Setting: mean of two replicates
With: FAM-labelled poly r(AG)8 RNA
`COC(=O)[C@@H]1[C@@H](O)[C@@]2(O)c3c(OC)cc(OC)cc3O[C@@]2(c2ccc(OC)cc2)[C@H]1c1ccccc1`: “fluorescence polarization change” 20.3 mP.
`CONC(=O)[C@@H]1[C@@H](O)[C@@]2(O)c3c(OC)cc(OC)cc3O[C@@]2(c2ccc(Br)cc2)[C@H]1c1ccccc1` — result for “fluorescence polarization change”: 17.4 mP.
Under “fluorescence polarization change”, `COc1ccc([C@@]23Oc4cc(OC)cc(OC)c4[C@]2(O)c2nc(-c4ccccc4)n(C)c(=O)c2[C@H]3c2ccccc2)cc1` is recorded as 35.7 mP.
Under “fluorescence polarization change”, `COc1ccc(-c2nc3c(c(=O)[nH]2)[C@@H](c2ccccc2)[C@]2(c4ccc(OC)cc4)Oc4cc(OC)cc(OC)c4[C@]32O)cc1` is recorded as 25.2 mP and 8.6 mP.
`COc1ccc([C@@]23Oc4cc(OC)cc(OC)c4[C@]2(O)c2nc[nH]c(=O)c2[C@H]3c2ccccc2)cc1` — result for “fluorescence polarization change”: 42.5 mP.
`COc1ccc([C@@]23Oc4cc(OC)cc(OC)c4[C@]2(O)c2nc4n(c(=O)c2[C@@H]3c2ccccc2)CCC4)cc1` — result for “fluorescence polarization change”: 30.2 mP.
`COc1ccc([C@@]23Oc4cc(OC)cc(OC)c4[C@]2(O)c2nc4n(c(=O)c2[C@H]3c2ccccc2)CCCC4)cc1` — result for “fluorescence polarization change”: 51 mP.
`COC(=O)[C@H]1[C@@H](c2ccccc2)[C@]2(c3ccc(OC)cc3)Oc3cc(OC)cc(OC)c3[C@@]1(O)C2=O`: “fluorescence polarization change” 4.5 mP.
`COC(=O)[C@@H]1[C@@H](c2ccccc2)[C@]2(c3ccccc3)Oc3ccccc3[C@@]1(O)[C@H]2O`: “fluorescence polarization change” 4.6 mP.
For `COc1ccc([C@@]23Oc4cc(OC)cc(OC)c4[C@]2(O)c2nc(-c4ccccc4)[nH]c(=O)c2[C@H]3c2ccccc2)cc1`, “fluorescence polarization change” read 14.2 mP.

Some of these lines once more (sample 3):
OPRK1 (Homo sapiens, UniProt P41145) — inhibition: 8.98%.
CHRM3 (Homo sapiens, UniProt P20309) — inhibition: -26.6%.
HTR2A (Homo sapiens, UniProt P28223) — inhibition: 5.37%.
